Results of several laboratories.
Parts stem from different laboratories: compare values within a part only. Positions count from the first letter of the parent shown.

Set 1 — method: competition protein-binding microarray; molecule type: double-stranded DNA, one strand shown; sample: in vitro; concentration: 2 µM; together with: Cbf1 competitor, 0.05 µM; direction: higher = stronger binding; shared flanks, not repeated: … GTCTTGATTCGCTTGACGCTGCTG
Target: Phosphate system positive regulatory protein PHO4, full length, GST-tagged (PHO4, Saccharomyces cerevisiae, UniProt P07270, residues 1-312)
Notes: whole 60-bp probe, lowest competitor level
Construct (chain): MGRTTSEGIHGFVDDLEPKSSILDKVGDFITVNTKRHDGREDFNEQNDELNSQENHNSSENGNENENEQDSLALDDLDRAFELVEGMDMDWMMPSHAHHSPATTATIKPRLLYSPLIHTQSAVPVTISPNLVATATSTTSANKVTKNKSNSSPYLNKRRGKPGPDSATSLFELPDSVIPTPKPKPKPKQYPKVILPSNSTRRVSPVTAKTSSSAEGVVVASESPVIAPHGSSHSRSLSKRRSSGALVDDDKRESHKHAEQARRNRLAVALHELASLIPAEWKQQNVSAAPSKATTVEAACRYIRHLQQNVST
| Oligonucleotide | fluorescence intensity |
| --- | --- |
| ATTAAAATCATTTAGTCCTTTATCTCTTATCCTTTT | 3040 a.u. |
| TGCGCAACAACTTGTTCAGTGGGTGTATGTCTAGAA | 4520 a.u. |
| CTCTTAAGCGCAGGCCACGTGCAGACATCGCTTTCG | 18500 a.u. |
| AGGGATACCGCTACCCACGTACCCCAAGACCAGCCC | 8260 a.u. |
| AAAGCGGTAATTTGTGCTGTGGGTGCAGATATCTAT | 4350 a.u. |
| GTCTTGTCTCATTGTCACAGCACTTTCCCCACTTCA | 4660 a.u. |
| TACTTTTTCCGGTGGCCCGTGATGGGTTTGTAACAG | 6980 a.u. |
| ACCCGGGCAGCCGTTTCCGTGCCGAGGTTCCTCCGA | 3320 a.u. |

Set 2 — method: RNA Bind-n-Seq; molecule type: RNA; sample: in vitro; concentration: not given; relative to: input RNA pool; direction: higher = stronger binding
Target: RING finger protein unkempt homolog, zinc fingers 1-6, GST-SBP tag (UNK, Homo sapiens, UniProt Q9C0B0, residues 30-357)
Chain of UniProt Q9C0B0 (30-357, looked up): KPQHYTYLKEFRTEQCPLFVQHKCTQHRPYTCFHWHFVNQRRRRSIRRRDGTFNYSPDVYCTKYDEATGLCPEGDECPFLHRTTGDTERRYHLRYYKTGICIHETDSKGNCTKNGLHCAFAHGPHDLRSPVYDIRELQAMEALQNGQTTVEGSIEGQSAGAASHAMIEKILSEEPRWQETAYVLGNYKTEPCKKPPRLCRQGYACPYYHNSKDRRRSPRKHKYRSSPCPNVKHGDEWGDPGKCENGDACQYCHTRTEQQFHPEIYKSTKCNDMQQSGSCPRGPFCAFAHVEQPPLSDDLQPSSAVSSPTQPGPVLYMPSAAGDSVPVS
Notes: RNA with constant flanks, human-mouse chimeric sites, ends assumed
Shared flanks, not repeated: GGGAGUUCUACAGUCCGACGAUC … CAACAGAGGAUUGAGCAUCA
| Oligonucleotide | bound/input enrichment |
| --- | --- |
| CACGUGUCUGCAGUGCUUGAUGUGGACUACUCUCCCACUGGGAAGGAAUUUGUGUCUGCCAGCUUUGAUAAGUCUAUUAGAAUCUUUCCUGUGGACAAAAGUCGAAGCAGGGAAGUGUAU | 0.597 ratio |
| AUGGAGAAGGAUUCUCUGCCCCGCUUUGUGCGCUCUGAAUUUUAUAAGGAGUUAAUCAAGUAGUCAUCUGGUCAGGCUUCCAAAAGUUCCUGUGAGUGUUGAGUUACAUCCUUUGUAGCA | 0.229 ratio |
| UCUUUAAAAAAAAAAUUACCUUUUCUGCAUAUUAUAGCCCUCCCAUAGAUCCACGUUCAAGCUCAAAGAGCAAAGGCUUUGCACGGAGCUCAAACAUCUGAUGAAGAUUUUUGAGACAGA | 5.36 ratio |
| UCAACUGACAACAUCAAAUACCAGCCUAAAGGGGGGCAGGUACAAAUUGUUACCAAGAAAAUAGACCUAAGCCAUGUGACAUCCAAAUGUGGCUCUCUGAAGAACAUCCGCCACAGGCCA | 0.538 ratio |
| CUGUGACUGAUGGCAGCUGAAGUUUGAGCAGCUGAAGUUGACUCCCUCUCCUUGCCUGAACCCCCCCCCACUGCCCCCCCAUCCCCCAGUGUCGGCUGAGAUGUUGCCUCUGCACGGUUC | 0.661 ratio |
| UCAGUCUUUUUGUACAGCUUUGUAAAUUCUUAACAUUUUUAUAUUGCCAUGUUUAUUUUGUUUGGGUAAUUUGGUUCAUUAAGUACAAAACCAAAUAAAUGAACAUCUUUUUCAGUAAUU | 1.6 ratio |
| UUCAAAGAAAAGGGCAGCUGUGUCAUUACUUGGGAGACUCUGGGGGAGGGAAAUUCUGUUCUUUUGUUUAAUUUUCCCCCAAAUGAAGCCAAAGUGUUUUUUAAGGAACUGAGAAAAAAU | 0.19 ratio |
| GAUCAUGAACCACCAUCCAGAAAUGAAAUGAGAUUACCCAGACGAGCCAAAACAGCUGCGCUACAGAAAAAGUAAACUAACCUUGCAGAGUUCCUUAAUGAAGAUACAAGUUAAGAGAGC | 0.3 ratio |

Single results of other studies
P1: PafA, mature enzyme, eGFP fusion (Elizabethkingia meningoseptica, UniProt Q9KJX5); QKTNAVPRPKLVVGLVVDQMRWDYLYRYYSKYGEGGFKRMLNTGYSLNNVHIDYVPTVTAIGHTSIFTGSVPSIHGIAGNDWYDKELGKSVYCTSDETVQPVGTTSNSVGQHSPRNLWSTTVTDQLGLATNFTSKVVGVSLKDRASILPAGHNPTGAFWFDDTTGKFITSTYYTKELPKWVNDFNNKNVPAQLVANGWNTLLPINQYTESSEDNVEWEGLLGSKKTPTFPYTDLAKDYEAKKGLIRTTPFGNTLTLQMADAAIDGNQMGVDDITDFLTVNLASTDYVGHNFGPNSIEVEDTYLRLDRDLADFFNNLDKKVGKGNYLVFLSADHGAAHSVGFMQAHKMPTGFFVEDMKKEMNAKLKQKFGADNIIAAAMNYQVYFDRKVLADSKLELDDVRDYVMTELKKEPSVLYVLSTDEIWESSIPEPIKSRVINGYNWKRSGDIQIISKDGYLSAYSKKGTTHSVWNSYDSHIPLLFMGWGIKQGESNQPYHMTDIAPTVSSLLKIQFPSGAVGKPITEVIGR
| Molecule | target | assay | system | conditions | scale | endpoint | value |
| --- | --- | --- | --- | --- | --- | --- | --- |
| P1 F276V | inorganic phosphate, free oxyanion | microfluidic competitive inhibition | in vitro, cell-free expressed | not given, derived from inhibition constants, unchanged parent 615000 nM | lower = stronger binding | phosphate dissociation constant | 478 µM |
| PhoQ, residues 284 288 289 292 302 303 TAVSDG | PhoP, residues 12 14 15 18 19 AGCRL (Escherichia coli, UniProt P23836) | Sort-seq, measured: YFP reporter | E. coli | PhoQ-PhoP variant library, together with: 10 µM Mg2+ | relative to: high Mg2+ state, higher = stronger signaling | fold induction | 12.8 |

For quick reference, copied from above (set 1):
| Oligonucleotide | fluorescence intensity |
| --- | --- |
| TACTTTTTCCGGTGGCCCGTGATGGGTTTGTAACAG | 6980 a.u. |
| TGCGCAACAACTTGTTCAGTGGGTGTATGTCTAGAA | 4520 a.u. |
| AGGGATACCGCTACCCACGTACCCCAAGACCAGCCC | 8260 a.u. |
